Assay results of several laboratories.
Protocols differ between the studies behind these lines. Numbers after ± are the reported error.
Chain of UniProt P08684 (whole entry, looked up): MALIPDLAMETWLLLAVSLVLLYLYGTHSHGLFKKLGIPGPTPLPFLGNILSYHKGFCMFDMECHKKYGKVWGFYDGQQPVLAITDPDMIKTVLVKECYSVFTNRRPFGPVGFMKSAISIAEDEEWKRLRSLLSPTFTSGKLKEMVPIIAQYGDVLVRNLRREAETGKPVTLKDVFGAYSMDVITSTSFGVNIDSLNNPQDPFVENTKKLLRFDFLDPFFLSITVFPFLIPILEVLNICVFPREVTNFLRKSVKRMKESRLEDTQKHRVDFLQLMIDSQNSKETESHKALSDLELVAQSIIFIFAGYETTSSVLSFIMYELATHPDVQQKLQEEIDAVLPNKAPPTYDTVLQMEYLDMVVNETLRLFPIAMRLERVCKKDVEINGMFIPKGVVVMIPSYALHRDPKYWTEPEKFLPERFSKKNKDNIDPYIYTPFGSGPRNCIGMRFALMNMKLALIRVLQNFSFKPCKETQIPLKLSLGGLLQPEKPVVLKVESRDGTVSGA
Chain of UniProt P11509 (whole entry, looked up): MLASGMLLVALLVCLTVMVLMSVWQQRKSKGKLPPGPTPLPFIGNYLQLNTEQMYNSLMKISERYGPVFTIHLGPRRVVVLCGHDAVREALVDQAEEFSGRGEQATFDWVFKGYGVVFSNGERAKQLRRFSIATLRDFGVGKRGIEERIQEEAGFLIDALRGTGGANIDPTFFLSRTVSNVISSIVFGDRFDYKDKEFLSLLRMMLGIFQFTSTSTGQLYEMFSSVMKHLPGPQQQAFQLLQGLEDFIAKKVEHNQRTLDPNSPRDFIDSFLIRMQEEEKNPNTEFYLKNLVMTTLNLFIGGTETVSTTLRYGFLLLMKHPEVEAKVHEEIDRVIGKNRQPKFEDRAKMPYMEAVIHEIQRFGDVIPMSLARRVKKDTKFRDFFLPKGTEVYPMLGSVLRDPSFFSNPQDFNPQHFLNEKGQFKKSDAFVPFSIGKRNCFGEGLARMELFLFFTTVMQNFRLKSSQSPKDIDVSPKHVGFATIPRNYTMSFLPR
Chain of UniProt P08183 (whole entry, looked up): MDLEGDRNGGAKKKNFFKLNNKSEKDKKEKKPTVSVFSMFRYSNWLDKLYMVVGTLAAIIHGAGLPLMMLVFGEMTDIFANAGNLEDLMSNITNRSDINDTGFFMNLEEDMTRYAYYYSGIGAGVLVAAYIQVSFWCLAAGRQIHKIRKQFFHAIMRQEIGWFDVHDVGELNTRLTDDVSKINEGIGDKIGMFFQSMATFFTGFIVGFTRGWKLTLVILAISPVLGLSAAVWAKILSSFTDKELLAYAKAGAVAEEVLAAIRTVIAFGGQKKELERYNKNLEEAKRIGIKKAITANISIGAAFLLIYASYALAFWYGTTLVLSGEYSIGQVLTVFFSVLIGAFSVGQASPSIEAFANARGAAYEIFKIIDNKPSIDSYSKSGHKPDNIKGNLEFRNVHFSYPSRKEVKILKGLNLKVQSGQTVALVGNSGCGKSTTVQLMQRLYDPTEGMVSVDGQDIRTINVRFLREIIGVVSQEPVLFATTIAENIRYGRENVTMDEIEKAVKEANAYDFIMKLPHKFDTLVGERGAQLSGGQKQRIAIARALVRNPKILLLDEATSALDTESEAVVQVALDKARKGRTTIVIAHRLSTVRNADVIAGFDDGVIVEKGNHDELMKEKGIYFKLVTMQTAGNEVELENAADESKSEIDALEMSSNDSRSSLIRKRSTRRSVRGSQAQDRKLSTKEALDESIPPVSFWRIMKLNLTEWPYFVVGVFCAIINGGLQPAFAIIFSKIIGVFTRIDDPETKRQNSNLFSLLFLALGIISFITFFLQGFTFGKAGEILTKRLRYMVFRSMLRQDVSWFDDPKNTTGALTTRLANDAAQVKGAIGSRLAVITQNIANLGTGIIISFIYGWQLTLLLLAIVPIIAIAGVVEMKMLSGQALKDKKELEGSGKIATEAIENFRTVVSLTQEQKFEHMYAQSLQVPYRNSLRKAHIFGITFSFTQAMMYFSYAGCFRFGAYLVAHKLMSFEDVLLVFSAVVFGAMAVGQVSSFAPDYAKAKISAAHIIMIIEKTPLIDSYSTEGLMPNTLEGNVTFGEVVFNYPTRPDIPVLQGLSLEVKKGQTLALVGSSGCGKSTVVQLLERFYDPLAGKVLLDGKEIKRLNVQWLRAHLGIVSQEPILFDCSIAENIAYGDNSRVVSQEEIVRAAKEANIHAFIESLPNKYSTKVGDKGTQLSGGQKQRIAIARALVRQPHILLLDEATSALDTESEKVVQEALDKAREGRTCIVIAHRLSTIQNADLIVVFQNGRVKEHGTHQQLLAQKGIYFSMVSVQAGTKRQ
Chain of UniProt P16662 (whole entry, looked up): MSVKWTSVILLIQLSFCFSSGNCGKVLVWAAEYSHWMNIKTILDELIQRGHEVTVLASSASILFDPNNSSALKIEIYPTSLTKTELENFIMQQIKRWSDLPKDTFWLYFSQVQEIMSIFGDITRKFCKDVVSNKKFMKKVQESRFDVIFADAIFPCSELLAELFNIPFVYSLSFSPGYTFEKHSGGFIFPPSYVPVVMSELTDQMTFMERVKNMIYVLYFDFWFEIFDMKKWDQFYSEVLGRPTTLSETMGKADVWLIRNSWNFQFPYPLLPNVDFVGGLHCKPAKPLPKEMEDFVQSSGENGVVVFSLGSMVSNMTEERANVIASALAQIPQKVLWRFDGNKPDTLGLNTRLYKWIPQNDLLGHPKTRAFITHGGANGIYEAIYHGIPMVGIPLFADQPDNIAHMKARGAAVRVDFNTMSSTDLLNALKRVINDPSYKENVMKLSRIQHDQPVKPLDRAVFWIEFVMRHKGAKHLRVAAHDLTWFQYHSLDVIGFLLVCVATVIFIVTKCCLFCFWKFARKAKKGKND

Compound	target or system	assay	system	conditions	how to read	quantity	result
Cc1cc(C(=O)NC(C)(C)COc2cccc3c2C(N)=NS(=O)(=O)N3)cc(C)n1	Salmonella typhimurium	Ames test, initial	TA100	1.50 µg/plate	relative to: solvent control	revertant ratio	1
CC(O)(CS(=O)(=O)c1ccc(F)cc1)C(=O)Nc1ccc(C#N)c(C(F)(F)F)c1 (stereo not shown)	RAW264.7	resazurin	DMEM with 10% FBS	–	–	CC50	> 100 µM
CN1[C@H]2CC[C@@H]1[C@@H](C(=O)O)[C@@H](OC(=O)c1ccccc1)C2	–	–	rat, whole blood	10 nM, 4 months, -80 °C, long-term storage	–	stability bias	-15.7%
CC(CN1c2ccccc2Sc2ccccc21)N(C)C (stereo not shown)	African green monkey cells	–	–	5 days	–	CC50	33.1 µM
CC(C)n1c(C2CCNCC2)nc2c([N+](=O)[O-])c(Br)c(Br)cc21	–	item: Nausea	AML patients	125 mg	–	adverse events causing interruption	2%
COC(=O)[C@H]1[C@@H](OC(=O)c2ccccc2)C[C@@H]2CC[C@H]1N2C	–	–	rat, whole blood	1000 nM, 4 months, -80 °C, long-term storage	–	stability bias	3.7%
O=[N+]([O-])c1ccc(N2CCN(CCC(O)c3ccc(F)cc3)CC2)c(C(F)(F)F)c1 (stereo not shown)	Salmonella typhimurium	SOS/umu test	TA1535/pSK1002	0.001 mg/mL, 4 h, without S9, lower range	–	survival	108%
CC(=O)Oc1ccc2c3c1O[C@H]1[C@@H](OC(C)=O)C=C[C@H]4[C@@H](C2)N(C)CC[C@@]341	–	–	rat, whole blood	1000 nM, 4 freeze-thaw cycles	–	stability bias	1.41%
Cc1ncc2n1-c1ccc(Cl)cc1C(c1ccccc1F)=NC2	–	–	wild-type mice, plasma	intravenous, 0.3 mg/kg, added: 14-day CMC	–	clearance	105 ± 24 mL/min
CC(=O)O[C@H]1C=C[C@H]2[C@H]3Cc4ccc(O)c5c4[C@@]2(CCN3C)[C@H]1O5	–	–	rat, whole blood	1000 nM, 4 months, -80 °C, long-term storage	–	stability bias	1.69%
O=C(O)c1cn(Cc2ccc(F)cc2)c2ccccc12	UGT2B7 (Homo sapiens, UniProt P16662)	glucuronidation, recombinant enzyme	–	–	relative to: UGT1A10 over UGT2B7	CLint ratio	20 fold
COc1ccc(CCN2CCC(Nc3nc4ccccc4n3Cc3ccc(F)cc3)CC2)cc1	African green monkey cells	–	–	5 days	–	CC50	7.5 µM
Cc1ncc2n1-c1ccc(Cl)cc1C(c1ccccc1F)=NC2	Cytochrome P450 3A4 (CYP3A4, Homo sapiens, UniProt P08684)	–	human, plasma	oral, 2 mg, day 1, alone, geometric mean	–	AUC(0-t)	19.7 ng·h/mL
CCCCN(CCCC)CCCOc1ccc(C(=O)c2c(CC)cc3ccccn23)cc1	African green monkey cells	–	–	5 days	–	CC50	6.61 µM
O=c1ccc2ccccc2o1	HepaRG 3D spheroids	steatosis	–	concentration not given, 168 h, high-content imaging	–	response probability	31.8%
CN1CC[C@]23c4c5ccc(O[C@@H]6O[C@H](C(=O)O)[C@@H](O)[C@H](O)[C@H]6O)c4O[C@H]2[C@@H](O)C=C[C@H]3[C@H]1C5	–	–	rat whole blood	500 nM, 4 freeze-thaw cycles	–	stability bias	-8.91%
O=C1c2c(O)c(=O)ccn2N([C@@H]2c3ccccc3SCc3c2ccc(F)c3F)[C@@H]2COCCN12	–	–	BALB/c mice, plasma	oral, 50 mg/kg baloxavir marboxil, 6 h	–	plasma concentration	102 ng/mL
COc1cc2c(Oc3ccc4[nH]c(C)cc4c3F)ccnc2cc1OCC1(N)CC1	African green monkey cells	–	–	5 days	–	CC50	5.25 µM
COC(=O)[C@@H]1[C@H]2CC[C@@H](C[C@@H]1O)N2C	–	–	rat whole blood	500 nM, 4 h, room temperature	–	stability bias	7.18%
CN(C)CCOC1=Cc2ccccc2Sc2ccc(Cl)cc21	African green monkey cells	–	–	5 days	–	CC50	12.3 µM
O=C(c1ccc(F)c(F)c1Nc1ccc(I)cc1F)N1CC(O)([C@@H]2CCCCN2)C1	–	–	human patients	oral, 1 mg/kg, age ≥18 years	–	treatment-related adverse events	100%
COc1cccc(-c2n[nH]c(SCc3ccccn3)n2)c1OC	Salmonella typhimurium	Ames test, preincubation	TA1535	0.13 mg/plate, with rat liver S9	–	revertant colonies per plate	15
CCOC(=O)Nc1ccc(NCc2ccc(F)cc2)nc1N	African green monkey cells	–	–	5 days	–	CC50	> 100 µM
CN1CC[C@]23c4c5ccc(O)c4O[C@H]2[C@@H](O[C@@H]2O[C@H](C(=O)O)[C@@H](O)[C@H](O)[C@H]2O)C=C[C@H]3[C@H]1C5	–	–	rat, whole blood	10 nM, 4 months, -80 °C, long-term storage	–	stability bias	-11.8%
CC(=O)c1ccc2c(c1)N(CCCN1CCC(CCO)CC1)c1ccccc1S2	African green monkey cells	–	–	5 days	–	CC50	12.2 µM
CCCCCCCCc1ccc(CCC(N)(CO)CO)cc1	ABCB1 (Homo sapiens, UniProt P08183)	transport, inhibitor	–	100 µM, 5 (unit not given), pH 7, added: NMN	–	inhibition	53%
COC(=O)[C@H]1[C@H]2C[C@@H]3c4[nH]c5cc(OC)ccc5c4CCN3C[C@H]2C[C@@H](OC(=O)c2cc(OC)c(OC)c(OC)c2)[C@@H]1OC	African green monkey cells	–	–	5 days	–	CC50	11 µM
CC(C)CC(=O)OC[C@H]1O[C@@](C#N)(c2ccc3c(N)ncnn23)[C@H](O)[C@@H]1O	Cytochrome P450 2A6 (CYP2A6, Homo sapiens, UniProt P11509)	metabolic stability	recombinant enzyme	1 µM	–	intrinsic clearance	0 µL/min/pmol

Repeated from above:
Compound	target or system	assay	system	conditions	how to read	quantity	result
COC(=O)[C@H]1[C@@H](OC(=O)c2ccccc2)C[C@@H]2CC[C@H]1N2C	–	–	rat, whole blood	1000 nM, 4 months, -80 °C, long-term storage	–	stability bias	3.7%
O=[N+]([O-])c1ccc(N2CCN(CCC(O)c3ccc(F)cc3)CC2)c(C(F)(F)F)c1 (stereo not shown)	Salmonella typhimurium	SOS/umu test	TA1535/pSK1002	0.001 mg/mL, 4 h, without S9, lower range	–	survival	108%
CC(=O)Oc1ccc2c3c1O[C@H]1[C@@H](OC(C)=O)C=C[C@H]4[C@@H](C2)N(C)CC[C@@]341	–	–	rat, whole blood	1000 nM, 4 freeze-thaw cycles	–	stability bias	1.41%
Cc1ncc2n1-c1ccc(Cl)cc1C(c1ccccc1F)=NC2	–	–	wild-type mice, plasma	intravenous, 0.3 mg/kg, added: 14-day CMC	–	clearance	105 ± 24 mL/min
